Assay results pooled from the literature.
Each line is one published result; not all experiments were run side by side.
NEK2: Serine/threonine-protein kinase Nek2 (NEK2, Homo sapiens, UniProt P51955)
Sequence of UniProt P51955 (whole entry, looked up): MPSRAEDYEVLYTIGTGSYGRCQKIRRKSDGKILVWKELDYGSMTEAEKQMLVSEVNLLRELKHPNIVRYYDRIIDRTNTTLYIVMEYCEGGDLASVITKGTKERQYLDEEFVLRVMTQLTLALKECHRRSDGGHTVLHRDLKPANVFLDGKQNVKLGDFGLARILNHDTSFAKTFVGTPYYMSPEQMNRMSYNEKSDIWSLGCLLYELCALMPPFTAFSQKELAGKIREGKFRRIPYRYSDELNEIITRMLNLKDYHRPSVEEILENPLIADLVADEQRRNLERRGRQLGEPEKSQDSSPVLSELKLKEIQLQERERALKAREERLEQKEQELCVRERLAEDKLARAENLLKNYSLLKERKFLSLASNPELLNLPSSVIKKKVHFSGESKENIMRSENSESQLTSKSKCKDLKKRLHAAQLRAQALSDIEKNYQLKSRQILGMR
Sequence of UniProt P11309 (whole entry, looked up): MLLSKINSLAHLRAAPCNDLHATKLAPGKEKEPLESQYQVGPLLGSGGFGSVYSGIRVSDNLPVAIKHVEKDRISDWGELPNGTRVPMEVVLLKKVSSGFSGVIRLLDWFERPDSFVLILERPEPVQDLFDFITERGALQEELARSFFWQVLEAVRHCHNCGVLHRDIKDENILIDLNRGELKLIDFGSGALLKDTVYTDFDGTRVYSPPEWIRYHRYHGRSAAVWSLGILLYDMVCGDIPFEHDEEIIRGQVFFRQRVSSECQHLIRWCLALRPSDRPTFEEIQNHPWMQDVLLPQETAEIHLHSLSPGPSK
Sequence of UniProt O15530 (whole entry, looked up): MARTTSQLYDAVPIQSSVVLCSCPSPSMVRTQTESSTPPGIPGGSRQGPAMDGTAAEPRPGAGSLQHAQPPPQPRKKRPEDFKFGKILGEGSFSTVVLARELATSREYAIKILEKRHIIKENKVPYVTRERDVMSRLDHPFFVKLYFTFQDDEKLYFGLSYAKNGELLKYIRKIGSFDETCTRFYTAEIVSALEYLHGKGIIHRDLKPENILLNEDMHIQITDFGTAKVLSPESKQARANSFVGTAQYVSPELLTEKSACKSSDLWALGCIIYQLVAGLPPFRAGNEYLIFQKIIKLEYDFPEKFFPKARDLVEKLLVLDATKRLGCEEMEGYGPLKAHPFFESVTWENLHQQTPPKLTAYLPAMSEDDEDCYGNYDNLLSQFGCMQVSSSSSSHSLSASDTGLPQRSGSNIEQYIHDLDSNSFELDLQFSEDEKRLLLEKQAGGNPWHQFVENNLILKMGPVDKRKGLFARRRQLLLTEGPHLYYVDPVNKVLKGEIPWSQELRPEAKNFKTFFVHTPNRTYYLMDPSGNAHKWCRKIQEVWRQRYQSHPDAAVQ
Sequence of UniProt P51817 (whole entry, looked up): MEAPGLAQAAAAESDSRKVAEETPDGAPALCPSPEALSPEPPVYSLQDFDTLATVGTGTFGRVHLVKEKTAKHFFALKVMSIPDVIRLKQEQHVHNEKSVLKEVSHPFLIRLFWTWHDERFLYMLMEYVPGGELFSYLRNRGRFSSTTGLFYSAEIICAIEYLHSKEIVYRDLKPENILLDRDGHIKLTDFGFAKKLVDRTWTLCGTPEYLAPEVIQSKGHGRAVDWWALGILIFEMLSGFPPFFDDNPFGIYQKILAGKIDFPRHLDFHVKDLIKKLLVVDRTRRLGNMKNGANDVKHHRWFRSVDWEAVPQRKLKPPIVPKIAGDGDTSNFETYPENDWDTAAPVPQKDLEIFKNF

SMILES | target | test | conditions | endpoint | result
Cc1cc([C@@H](C)Nc2ccccc2C(=O)O)c2nc(N3CCC(F)(F)CC3)c(C#N)c(=O)n2c1 | PDPK1 (Homo sapiens, UniProt O15530) | binding, competition with immobilised ligand | 10 µM | remaining binding | 100%
CNc1ncc2c(/C=C/C(=O)N3CCC(OC)CC3)nn(Cc3cccc(C(F)(F)F)c3)c2n1 | NEK2 | enzyme activity, inhibitor, radiometric | 1 µM | remaining activity | 98%
COc1cc(-c2cncc3c2CN(C)Cc2cc(N4CCNCC4)ccc2-3)cc(OC)c1OC | PIM1 (Homo sapiens, UniProt P11309) | enzyme activity, inhibitor | 1 µM | remaining activity | 105%
C=CC(=O)N1CCC(COCC(=O)N2CCN(c3nc(-c4cnc(N)nc4C(F)F)nc(N4CCOC[C@@H]4C)n3)CC2)CC1 | NEK2 | binding, competition with immobilised ligand | 1 µM | remaining binding | 94%
CCCCC(=O)Nc1ccc(-c2ccc3ncn(CCC)c(=O)c3c2)cn1 | PRKX (Homo sapiens, UniProt P51817) | binding, competition with immobilised ligand | 0.5 µM | remaining binding | 100%

A few entries again:
SMILES | target | test | conditions | endpoint | result
CNc1ncc2c(/C=C/C(=O)N3CCC(OC)CC3)nn(Cc3cccc(C(F)(F)F)c3)c2n1 | NEK2 | enzyme activity, inhibitor, radiometric | 1 µM | remaining activity | 98%
